# Measurements collected from several papers.
# Lines come from different studies, so protocols differ. Numbers after ± are the reported error.
Structure (SMILES),target or system,assay,system,setting,how to read,measurement,result
CCCCCCCC(=O)N[C@@H](CCCCNS(=O)(=O)c1cccc2c(N(C)C)cccc12)C(=O)N[C@H](C(=O)N[C@@H](CCN)C(=O)N[C@H]1CCNC(=O)[C@H]([C@@H](C)O)NC(=O)[C@H](CCN)NC(=O)[C@H](CCN)NC(=O)[C@H](CC(C)C)NC(=O)[C@@H](Cc2ccccc2)NC(=O)[C@H](CCN)NC1=O)[C@@H](C)O,"LPS, Escherichia coli",ITC,,"pH 7.0, 37 °C",,"ΔH, second site",-10 ± 2.7 kcal/mol
N=C(N)NCCC[C@@H]1NC(=O)[C@H](CCCCNC(=O)CC[C@H](NC(=O)CCOCCOCCOCCOCCNC(=O)CN2CCN(CC(=O)O)CCN(CC(=O)O)CCN(CC(=O)O)CC2)C(=O)NCCCC[C@@H]2NC(=O)[C@@H](Cc3ccccc3)NC(=O)[C@H](CC(=O)O)NC(=O)CNC(=O)[C@H](CCCNC(=N)N)NC2=O)NC(=O)[C@@H](Cc2ccccc2)NC(=O)[C@H](CC(=O)O)NC(=O)CNC1=O [indium-111 labelled],,,octanol/water,,,log P,-3.22 ± 0.09
C=CCn1nnc2c(NCc3ccc(C)s3)nc(N[C@H](CC)CO)nc21,Cav2.1 calcium channel,"tail current integral, whole-cell patch clamp",HEK293 transfected with Cav2.1,,,EC50,10.3 µM
CC[C@H](C)[C@@H]1NC(=O)[C@H](Cc2ccc(O)cc2)NC(=O)[C@@H](N)CSSC[C@@H](C(=O)N2CCC[C@H]2C(=O)N2CCC[C@H]2C(=O)NCC(N)=O)NC(=O)[C@H](CC(N)=O)NC(=O)[C@H](CCC(N)=O)NC1=O,oxytocin receptor (titi monkey),"Ca2+ mobilisation, agonist",CHO cells,,,EC50,0.00468 µM
COCO[C@H]1[C@H](O)[C@@H](N)[C@@H](O[C@H]2[C@H](O[C@@H]3O[C@H](CO)[C@@H](O[C@H]4O[C@@H](CN)[C@@H](O)[C@H](O)[C@H]4N)[C@H]3O)[C@@H](O)[C@H](N)C[C@@H]2N)O[C@@H]1CO,Mycobacterium smegmatis ribosome wild type,"translation, cell-free luciferase synthesis",,,,IC50,200 ± 30 ng/mL
C[C@H](NC(=O)[C@@H]1CCCN1C(=O)[C@H](Cc1ccc(O)cc1)NC(=O)CNC(=O)[C@H](CO)NC(=O)[C@H](Cc1ccccc1)NC(=O)[C@@H](N)[C@@H](C)O)C(=O)N[C@@H](Cc1ccccc1)C(=O)O,"mu opioid receptor, rat","ion current, agonist, whole-cell patch clamp","Sprague Dawley rat, supraoptic nucleus neurons, brain slice","100 nM, before CTOP, maximal response",,outward current,42.2 ± 7.2 pA
CC[C@H](C)[C@H](NC(=O)[C@@H](NC(=O)[C@H](CC(=O)O)NC(C)=O)[C@@H](C)O)C(=O)N[C@@H](CCCNC(=N)N)C(=O)N[C@@H](CC(C)C)C(=O)N[C@@H](CC(C)C)C(=O)N[C@@H](Cc1ccccc1)C(=O)N[C@@H](CCC(N)=O)C(=O)N[C@@H](CC(C)C)C(=O)N[C@@H](CCSC)C(=O)N[C@@H](CCCNC(=N)N)C(=O)N1CCC[C@H]1C(=O)N1CCC[C@H]1C(=O)N[C@@H](CC(N)=O)C(=O)N[C@@H](CCSC)C(=O)N[C@H](C(=O)N1CCC[C@H]1C(=O)N[C@@H](C)C(=O)N[C@H](C(=O)N[C@@H](CC(N)=O)C(=O)N[C@@H](C)C(N)=O)C(C)C)[C@@H](C)O,,refers to: HA-19 tetramer,"tetramer+ CD4 T cells, PBMC, healthy adults, HLA-DRB1*0101","dose not given, CD62L−CD45RA+/− or CD62L+CD45RA−",,antigen-experienced T cells,64.1%
N=C(N)NCCC[C@@H]1NC(=O)[C@H](CCCCNC(=O)CNC(=O)CNC(=O)CNC(=O)CC[C@H](NC(=O)CCOCCOCCOCCOCCNC(=O)CC[C@H](NC(=O)CN2CCN(CC(=O)O)CCN(CC(=O)O)CCN(CC(=O)O)CC2)C(=O)NCCOCCOCCOCCOCCC(=O)N[C@@H](CCC(=O)NCC(=O)NCC(=O)NCC(=O)NCCCC[C@@H]2NC(=O)[C@@H](Cc3ccccc3)NC(=O)[C@H](CC(=O)O)NC(=O)CNC(=O)[C@H](CCCNC(=N)N)NC2=O)C(=O)NCC(=O)NCC(=O)NCC(=O)NCCCC[C@@H]2NC(=O)[C@@H](Cc3ccccc3)NC(=O)[C@H](CC(=O)O)NC(=O)CNC(=O)[C@H](CCCNC(=N)N)NC2=O)C(=O)NCC(=O)NCC(=O)NCC(=O)NCCCC[C@@H]2NC(=O)[C@@H](Cc3ccccc3)NC(=O)[C@H](CC(=O)O)NC(=O)CNC(=O)[C@H](CCCNC(=N)N)NC2=O)NC(=O)[C@@H](Cc2ccccc2)NC(=O)[C@H](CC(=O)O)NC(=O)CNC1=O [indium-111 labelled],,,"female athymic nude mice, muscle","intravenous, 3 µCi, 1 h, U-87 MG glioma xenograft",,tissue uptake,0.98 ± 0.11 %ID/g
CSCC[C@H](NC(=O)[C@@H](NC(=O)[C@H](C)N)[C@@H](C)O)C(=O)N[C@@H](Cc1c[nH]c2ccccc12)C(=O)N[C@@H](C)C(=O)N[C@@H](C)C(N)=O,immunoproteasome and standard proteasome,"substrate degradation, substrate, mass spectrometry",,"25 µM, 4 h",reference: immunoproteasome over standard proteasome,selectivity ratio,2.7
CC(C)C[C@@H]1NC(=O)[C@H](Cc2c[nH]c3ccccc23)NC(=O)[C@H](CCCNC(=N)N)NC(=O)[C@H](CCCCN)NC(=O)[C@@H]2CCCN2C(=O)[C@H](Cc2ccc(O)cc2)NC(=O)[C@H](CCCNC(=N)N)NC(=O)[C@H](CC(C)C)NC(=O)[C@H](Cc2ccc(O)cc2)NC(=O)[C@H](CCCNC(=N)N)NC1=O,delta-opioid receptor,DADLE-mediated adenylyl cyclase inhibition,NG108-15 membranes,"concentration not given, added: forskolin plus DADLE",,inhibition of adenylyl cyclase,no effect
CO[C@H]1[C@H](O)[C@@H](N)[C@@H](O[C@H]2[C@H](O[C@@H]3O[C@H](CO)[C@@H](O[C@H]4O[C@@H](CN)[C@@H](O)[C@H](O)[C@H]4N)[C@H]3O)[C@@H](O)[C@H](N)C[C@@H]2N)O[C@@H]1CO,Mycobacterium smegmatis ribosome wild type,"translation, cell-free luciferase synthesis",,,,IC50,220 ± 50 ng/mL
COC[C@@H](NC(C)=O)C(=O)NCc1ccc(OCc2ccc(OC(F)(F)F)cc2)cc1,voltage-gated sodium channel,whole-cell patch clamp,rat embryonic cortical neurons,"10 µM, at -50 mV",,fraction of inactivated channels,0.91 ± 0.05
C=CCO[C@H]1[C@H](O)[C@@H](N)[C@@H](O[C@H]2[C@H](O[C@@H]3O[C@H](CO)[C@@H](O[C@H]4O[C@@H](CN)[C@@H](O)[C@H](O)[C@H]4N)[C@H]3O)[C@@H](O)[C@H](N)C[C@@H]2N)O[C@@H]1CO,ribosome with human cytosolic A site,"luciferase translation, cell-free translation",,,,IC50,125000 ± 3070 ng/mL
C=CCn1cnc2c(NCc3ccc(C)s3)nc(N[C@H](CC)CO)nc21,Cav2.1 calcium channel,perforated patch clamp,HEK293 transfected,"50 µM, 100 ms application, at -100 mV",,unbinding time constant,0.99 s
COC[C@@H](NC(C)=O)C(=O)NCc1ccc(OCc2ccccc2)cc1,voltage-gated sodium channel,whole-cell patch clamp,rat embryonic cortical neurons,"10 µM, at -50 mV",,fraction of inactivated channels,0.63 ± 0.13
NC(CNC(CNC(CC(=O)O)C(=O)O)C(=O)O)C(=O)O (stereo not drawn),NDM-1 metallo-beta-lactamase,ICP-MS,,concentration not given,,zinc loss,~1.8 Zn equivalents
NC[C@@H]1O[C@H](O[C@H]2[C@@H](O)[C@H](O[C@@H]3[C@@H](O)[C@H](N)C[C@H](N)[C@H]3O[C@H]3O[C@H](CO)[C@@H](OCCCO)[C@H](O)[C@H]3N)O[C@@H]2CO)[C@H](N)[C@@H](O)[C@@H]1O,Mycobacterium smegmatis ribosome wild type,"translation, cell-free luciferase synthesis",,,,IC50,730 ± 190 ng/mL
CCCCCCCCC(=O)NCc1ccc(O)c(OC)c1,mAb 2-LD2,"antibody binding, indirect competitive ELISA",,added: coating antigen hapten 4-OVA,,IC50,0.03 ng/mL
C[C@H](NC(=O)[C@H](CCC(N)=O)NC(=O)[C@H](C)NC(=O)[C@H](CCCCN)NC(=O)[C@H](CCC(N)=O)NC(=O)[C@H](C)NC(=O)[C@H](CCCCN)NC(=O)[C@H](CCC(N)=O)NC(=O)[C@H](C)NC(=O)[C@H](CCC(N)=O)NC(=O)[C@H](CCCCN)NC(=O)[C@H](C)NC(=O)[C@H](CCC(N)=O)NC(=O)[C@H](CCCCN)NC(=O)[C@H](C)NC(=O)[C@H](CCC(N)=O)NC(=O)[C@H](C)NC(=O)[C@H](CCCCN)NC(=O)[C@H](CCC(N)=O)NC(=O)[C@H](C)NC(=O)[C@H](CCCCN)NC(=O)[C@H](CO)NC(=O)[C@H](Cc1ccc(O)cc1)NC(=O)CNC(=O)CNC(=O)CN)C(=O)N[C@@H](CCCCN)C(=O)N[C@@H](CCC(N)=O)C(=O)N[C@@H](C)C(=O)N[C@@H](CCCCN)C(=O)N[C@@H](CCC(N)=O)C(=O)O,,"binding, SPR Langmuir fit",rVλ6Wil fibrils,"300 nM, pH 7.4",,Rmax,71.5 RU
CN[C@](C)(C[18F])C(=O)O,MDA-MB-468 tumour model,,"host not given, liver","2 h, tumour-bearing",,tracer uptake,1.8 %ID/g
CCCO[C@H]1[C@H](O)[C@@H](N)[C@@H](O[C@H]2[C@H](O[C@@H]3O[C@H](CO)[C@@H](O[C@H]4O[C@@H](CN)[C@@H](O)[C@H](O)[C@H]4N)[C@H]3O)[C@@H](O)[C@H](N)C[C@@H]2N)O[C@@H]1CO,ribosome with human cytosolic A site,"luciferase translation, cell-free translation",,,,IC50,166000 ± 28300 ng/mL
Nc1ccn(C2CCC(OC(C(=O)O)P(=O)(O)O)C2)c(=O)n1 (racemic),HIV-1 reverse transcriptase M184V/E138K,"enzyme activity, inhibitor",,"added: poly(I)·dC, [3H]dCTP",reference: mutant over wild type,fold resistance,5 fold
CCCCCO[C@H]1[C@H](O)[C@@H](N)[C@@H](O[C@H]2[C@H](O[C@@H]3O[C@H](CO)[C@@H](O[C@H]4O[C@@H](CN)[C@@H](O)[C@H](O)[C@H]4N)[C@H]3O)[C@@H](O)[C@H](N)C[C@@H]2N)O[C@@H]1CO,Mycobacterium smegmatis ribosome wild type,"translation, cell-free luciferase synthesis",,,,IC50,400 ± 110 ng/mL
COc1ccc2ccc3c(c2c1)C=[N+]1C2CCCCC2[N+]2=Cc4ccc(OCCN5CCCCC5)cc4[O][Au-]21[O]3.F[P-](F)(F)(F)(F)F (stereo not drawn),Klebsiella pneumoniae glutathione reductase,"cellular enzyme activity, inhibitor","Klebsiella pneumoniae, carbapenem-resistant",4 h,,IC50,2.26 µM
COCOC[C@H]1O[C@H](O[C@H]2[C@H](O[C@@H]3O[C@H](CO)[C@@H](O[C@H]4O[C@@H](CN)[C@@H](O)[C@H](O)[C@H]4N)[C@H]3O)[C@@H](O)[C@H](N)C[C@@H]2N)[C@H](N)[C@@H](O)[C@@H]1O,Mycobacterium smegmatis ribosome wild type,"translation, cell-free luciferase synthesis",,,,IC50,1570 ± 420 ng/mL
CCCc1cnn2c(NCc3ccc(C)s3)nc(N[C@H](CC)CO)nc12,Cav2.1 calcium channel,"tail current integral, whole-cell patch clamp",HEK293 transfected with Cav2.1,,,EC50,11.4 µM
CC(C)C[C@H](NC(=O)[C@@H](N)CCCNC(=N)N)C(=O)N[C@@H](CC(N)=O)C(=O)N[C@@H](CO)C(=O)N[C@@H](C)C(=O)N[C@@H](CO)C(=O)N[C@@H](CCCNC(=N)N)C(=O)N[C@H](C(=O)N[C@@H](C)C(=O)N[C@@H](Cc1c[nH]cn1)C(=O)NCC(=O)N[C@@H](Cc1ccc(O)cc1)C(N)=O)C(C)C,ATRP receptor 2 (Aplysia californica),"IP1 accumulation, agonist",,,,EC50,10 µM

# Some of these lines once more:
Structure (SMILES),target or system,assay,system,setting,how to read,measurement,result
COC[C@@H](NC(C)=O)C(=O)NCc1ccc(OCc2ccccc2)cc1,voltage-gated sodium channel,whole-cell patch clamp,rat embryonic cortical neurons,"10 µM, at -50 mV",,fraction of inactivated channels,0.63 ± 0.13
NC(CNC(CNC(CC(=O)O)C(=O)O)C(=O)O)C(=O)O (stereo not drawn),NDM-1 metallo-beta-lactamase,ICP-MS,,concentration not given,,zinc loss,~1.8 Zn equivalents
NC[C@@H]1O[C@H](O[C@H]2[C@@H](O)[C@H](O[C@@H]3[C@@H](O)[C@H](N)C[C@H](N)[C@H]3O[C@H]3O[C@H](CO)[C@@H](OCCCO)[C@H](O)[C@H]3N)O[C@@H]2CO)[C@H](N)[C@@H](O)[C@@H]1O,Mycobacterium smegmatis ribosome wild type,"translation, cell-free luciferase synthesis",,,,IC50,730 ± 190 ng/mL
